Earlier results that unrelated publications cite.
Lines come from different studies, so protocols differ. Several values in a cell are separate wells, animals, samples, runs or records. Numbers after ± are the reported error. ≈ marks a conversion by molar mass, not a printed value.

| Compound | target or system | test | test system | conditions | endpoint | value |
| --- | --- | --- | --- | --- | --- | --- |
| CN[C@H](CC(C)C)C(=O)N[C@H]1C(=O)N[C@@H](CC(N)=O)C(=O)N[C@H]2C(=O)N[C@H]3C(=O)N[C@H](C(=O)N[C@H](C(=O)O)c4cc(O)cc(O)c4-c4cc3ccc4O)[C@H](O)c3ccc(c(Cl)c3)Oc3cc2cc(c3O[C@@H]2O[C@H](CO)[C@@H](O)[C@H](O)[C@H]2O[C@H]2C[C@](C)(NCc3ccc(-c4ccc(Cl)cc4)cc3)[C@H](O)[C@H](C)O2)Oc2ccc(cc2Cl)[C@H]1O | – | – | mouse | – | MTD | 75 mg/kg |
| Brc1ccc(Oc2ccc(Br)cc2Br)c(Br)c1 | – | – | – | 25 °C | water solubility | 0.015 µg/mL (≈ 0.0309 µM) |
| [Mn+2].[NH3+]CCN1CCN(CC(=O)[O-])Cc2cccc(n2)CN(CC(=O)[O-])CC1 | – | – | – | transmetallation, together with: Zn(II) 25 mM | half-life | 54.4 h |
| CN(C)c1ncnc2c1ncn2[C@@H]1O[C@H](CO)[C@@H](NC(=O)[C@@H](N)CSC(c2ccccc2)c2ccccc2)[C@H]1O | Vero | MTT | – | – | CC50 | > 100000 nM |
| Clc1ccc(C(c2ccc(Cl)cc2)C(Cl)(Cl)Cl)cc1 | – | – | – | – | log Kow | 6.91 |
| [Cl-].[Cl-].[Ru+2].c1ccc(-c2ccccn2)nc1.c1ccc(-c2ccccn2)nc1.c1ccc2cc3nc4c5cccnc5c5ncccc5c4nc3cc2c1 | – | – | acetonitrile | – | singlet oxygen quantum yield | 0.75 |
| CC[C@H](C)[C@H](NC(=O)[C@H](CCCN)NC(=O)[C@H](CCCNC(=N)N)NC(=O)[C@@H]1CCCN1C(=O)[C@@H]1CCCN1C(=O)[C@H](CCCNC(=N)N)NC(=O)[C@@H]1CCCN1C(=O)[C@H](CCCNC(=N)N)NC(=O)[C@@H]1CCCN1C(=O)[C@H](CC(C)C)NC(=O)[C@H](Cc1ccc(O)cc1)NC(=O)[C@@H]1CCCN1C(=O)[C@@H]1CCCN1C(=O)[C@H](CCCCN)NC(=O)[C@H](CC(=O)O)NC(=O)[C@@H](N)C(C)C)C(=O)N[C@@H](Cc1ccc(O)cc1)C(=O)N[C@@H](CC(N)=O)C(=O)N[C@@H](CCCN)C(N)=O | – | – | mouse serum | – | half-life | 3 h and ~3 h |
| Cc1ccc(C(C)C)cc1.F[P-](F)(F)(F)(F)F.[Cl][Os+]1[N]2C=CC=c3ccc4c(c32)[N]1C=CC=4 | – | – | – | 45 °C | aquation half-life | 9 h |
| CC[C@H](C)[C@@H]1NC(=O)[C@@H]2CSSC[C@@H](C(=O)N[C@@H](CO)C(=O)N[C@@H](CC(C)C)C(=O)N[C@@H](CO)C(=O)N[C@H](C(=O)N[C@@H](C)C(=O)N[C@@H](CCC(N)=O)C(=O)N[C@@H](CCC(=O)O)C(=O)O)C(C)C)NC(=O)[C@H](CCCNC(=N)N)NC(=O)[C@H](CCCNC(=N)N)NC(=O)[C@H](CCCCN)NC(=O)[C@H](CCCNC(=N)N)NC(=O)[C@H](CSSC[C@H](NC(=O)[C@H](CO)NC(=O)[C@H](C)NC(=O)CNC(=O)[C@@H](NC(=O)[C@@H]3CCCN3C(=O)[C@H](CCCNC(=N)N)NC(=O)[C@H](CC(C)C)NC(=O)[C@H](CO)NC(=O)[C@@H](NC(=O)CNC(=O)[C@H](CCCNC(=N)N)NC(=O)[C@H](Cc3c[nH]c4ccccc34)NC(=O)[C@H](Cc3ccccc3)NC(=O)[C@@H]3CCCN3C(=O)[C@@H](NC(=O)[C@@H](N)CCSC)[C@@H](C)O)C(C)C)[C@@H](C)CC)C(=O)N[C@@H](CCCNC(=N)N)C(=O)N[C@@H](CC(=O)O)C(=O)N[C@@H](CC(=O)O)C(=O)N[C@@H](CO)C(=O)N[C@@H](CCC(=O)O)C(=O)N2)NC(=O)[C@H](CC(C)C)NC(=O)[C@H](CCCNC(=N)N)NC(=O)[C@H]([C@@H](C)O)NC1=O | – | – | human, plasma | – | plasma half-life | 9.1 ± 2.5 min |
| CC(=O)OC12COC1CC(O)C1(C)C(=O)C(OC(=O)C3CC3)C3=C(C)C(OC(=O)C(O)C(C=C(C)C)NC(=O)OC(C)(C)C)CC(O)(C(OC(=O)c4cccc(OC(F)(F)F)c4)C21)C3(C)C (stereo not shown) | CFPAC-1 | cytotoxicity | – | – | IC50 | 0.79 nM |
| C[C@]12C=CC(=O)C=C1[C@@H](CSC[C@H](N)C(=O)O)CC1C2CC[C@]2(C)C(=O)CCC12 (stereo partly shown) | – | – | women taking exemestane, urine | dose not given | urinary concentration | 5.9 ± 0.58 nmol/mg creatinine |
| O=C(O)c1ccccc1/C=N/Nc1nc(-c2ccccc2Cl)cs1 | – | – | Sprague-Dawley rat, male | intravenous, 1 mg/kg | C0 | 34500 ± 18800 ng/mL |
| CCc1nn(C)c2nc(-c3ccc(C(=O)O)cc3)nc(NCc3ccccc3)c12 | – | – | mouse | – | oral bioavailability | 33% |
| CC(C)=CCCC(C)=CCCn1cc(CC(P(=O)(O)O)P(=O)(O)O)nn1 | – | – | plasma | concentration not given | terminal half-life | 47.7 h |
| CC(=O)OC12COC1CC(O)C1(C)C(=O)C(OC(=O)N(C)C)C3=C(C)C(OC(=O)C(O)C(C=C(C)C)NC(=O)OC(C)(C)C)CC(O)(C(OC(=O)c4cccc(OC(F)F)c4)C21)C3(C)C (stereo not shown) | HCT-116 | cytotoxicity | – | – | IC50 | 1.44 nM |
| c1ccc2cc3c(ccc4ccccc43)cc2c1 | – | substrate | human liver microsomes | – | Vmax | 0.022 nmol/min/mg |
| C=Cc1c(C)c2cc3nc(c(CC(=O)[O-])c4[n-]c(cc5nc(cc1[n-]2)C(C)=C5CC)c(C)c4C(=O)[O-])C(CCC(=O)[O-])C3C.[Cu+2].[Na+].[Na+].[Na+] (stereo not shown) | – | – | healthy human volunteers | oral, phase I | tolerated dose | > 500 mg |
| O=C(O)C(F)(OC(F)(F)C(F)(F)C(F)(F)F)C(F)(F)F (stereo not shown) | – | literature value, method not stated | – | – | pKa | 3.82 |
| C[C@@H]1O[C@@H](O[C@H]2[C@H](O)[C@@H](O)[C@H](OC[C@H]3O[C@@H](O[C@H]4CC[C@@]5(C)[C@@H](CC[C@]6(C)[C@@H]5C=C[C@]57OC[C@@]8(CCC(C)(C)C[C@H]85)[C@@H](O)C[C@]76C)[C@]4(C)CO)[C@H](O)[C@@H](O)[C@@H]3O)O[C@@H]2CO)[C@H](O)[C@H](O)[C@H]1O | – | – | – | – | logP | -0.37 |

Repeated from above:
| Compound | target or system | test | test system | conditions | endpoint | value |
| --- | --- | --- | --- | --- | --- | --- |
| Cc1ccc(C(C)C)cc1.F[P-](F)(F)(F)(F)F.[Cl][Os+]1[N]2C=CC=c3ccc4c(c32)[N]1C=CC=4 | – | – | – | 45 °C | aquation half-life | 9 h |
| Clc1ccc(C(c2ccc(Cl)cc2)C(Cl)(Cl)Cl)cc1 | – | – | – | – | log Kow | 6.91 |
